Measurements collected from several papers.
A part holds a random share of what one study measured. Changes are numbered by the printed parent chain.

Block 1 — technique: RNA Bind-n-Seq; form: RNA; matrix: in vitro; tested at: 20 nM; setting: 6-mer, flanks averaged, single round; added: 150 mM LiCl; relative to: input library; reading: higher = stronger binding
Target: TAR DNA-binding protein 43, full length, His tag (TARDBP, Homo sapiens, UniProt Q13148, residues 1-414)
| Oligonucleotide | 6-mer enrichment (R) |
| --- | --- |
| CAGUUC | 0.856 |
| GACCAU | 0.862 |
| CCAUUC | 0.909 |
| CUUUAG | 0.933 |
| CCGCGA | 0.858 |
| UCCGCG | 0.909 |
| UGUAGA | 1.17 |
| CUUCGG | 0.835 |

Block 2 — technique: protein binding microarray; form: double-stranded DNA, one strand shown; matrix: in vitro; tested at: not given; relative to: not given; reading: higher = stronger binding
Target: Histone acetyltransferase KAT6A, winged helix 2, GST fusion (KAT6A, Homo sapiens, UniProt Q92794, residues 85-181)
Setting: 8-mer, flanks averaged, mean of 2 arrays, mostly near background
Residues (chain): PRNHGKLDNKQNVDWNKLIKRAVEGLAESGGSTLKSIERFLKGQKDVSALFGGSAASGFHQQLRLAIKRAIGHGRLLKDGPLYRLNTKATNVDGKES
| Oligonucleotide | E-score |
| --- | --- |
| CCACGTGC | 0.0707 |
| CTAAGCGA | -0.0776 |
| CTCCTGCA | -0.113 |
| GAGGTTCA | 0.0127 |
| AAGCAATT | 0.131 |
| ATGATCCC | -0.104 |
| AAGATCGT | -0.146 |
| ACATACGC | -0.194 |

Block 3 — target: CEBPA, bZIP domain (human); technique: DHFR protein complementation; matrix: yeast; relative to: wild-type JUN-FOS pair; reading: higher = stronger binding
Setting: single substitutions, most at no-binding floor
Starting sequence: JUN, bZIP domain (human); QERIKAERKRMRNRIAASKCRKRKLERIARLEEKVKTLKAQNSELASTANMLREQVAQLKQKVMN; partner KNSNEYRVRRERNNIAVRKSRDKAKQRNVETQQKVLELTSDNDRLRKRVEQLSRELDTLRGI
| Substitution | binding fitness |
| --- | --- |
| Q55E | -1.47 natural log |
| L45P | -1.5 natural log |
| A49H | -1.37 natural log |
| I28H | -1.34 natural log |
| E33F | -1.61 natural log |
| L45M | -1.38 natural log |
| V56S | -1.58 natural log |
| M51V | -1.51 natural log |

Single results of other studies
| Molecule | target | assay | test system | conditions | measurement | value |
| --- | --- | --- | --- | --- | --- | --- |
| FPSNMMVVT | HLA class I histocompatibility antigen, A alpha chain, allele A*25:01 (Homo sapiens, UniProt P04439) | peptide-MHC binding | peptide | concentration not given | binding | inactive |

Repeated from above (block 2):
| Oligonucleotide | E-score |
| --- | --- |
| CTAAGCGA | -0.0776 |
| CTCCTGCA | -0.113 |
| GAGGTTCA | 0.0127 |
